Results pooled from the literature.
Protocols differ between the studies behind these lines. Numbers after ± are the reported error.
Sequence of UniProt P05177 (whole entry, looked up): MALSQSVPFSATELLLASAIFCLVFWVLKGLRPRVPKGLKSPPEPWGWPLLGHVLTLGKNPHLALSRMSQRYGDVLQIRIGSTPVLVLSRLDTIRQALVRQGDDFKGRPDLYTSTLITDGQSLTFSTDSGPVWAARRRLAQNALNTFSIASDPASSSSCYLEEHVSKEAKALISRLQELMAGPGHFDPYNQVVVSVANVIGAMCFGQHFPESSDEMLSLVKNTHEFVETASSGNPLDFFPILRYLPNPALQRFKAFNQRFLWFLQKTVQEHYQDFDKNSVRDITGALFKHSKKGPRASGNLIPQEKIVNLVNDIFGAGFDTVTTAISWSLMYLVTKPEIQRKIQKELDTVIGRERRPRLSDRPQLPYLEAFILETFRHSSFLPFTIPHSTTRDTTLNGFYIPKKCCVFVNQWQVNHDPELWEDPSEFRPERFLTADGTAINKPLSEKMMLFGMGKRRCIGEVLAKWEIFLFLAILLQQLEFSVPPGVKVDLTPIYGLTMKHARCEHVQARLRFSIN

| SMILES | target or system | assay | test system | conditions | how to read | endpoint | value |
| --- | --- | --- | --- | --- | --- | --- | --- |
| OCc1ncc2n1-c1ccc(Cl)cc1C(c1ccccc1F)=NC2 | – | – | human, plasma | 7.5 mg midazolam, day 1, geometric mean, metabolite of midazolam, added: midazolam 7.5 mg alone | – | half-life | 3.8 h |
| COc1cc2c(Oc3ccc4[nH]c(C)cc4c3F)ccnc2cc1OCC1(N)CC1 | – | item: grade 3 abdominal pain | paediatric high-risk refractory sarcoma | 8 mg | – | incidence of adverse event | 0% |
| CC(C)CC(=O)OC[C@H]1O[C@@](C#N)(c2ccc3c(N)ncnn23)[C@H](O)[C@@H]1O | Cytochrome P450 1A2 (CYP1A2, Homo sapiens, UniProt P05177) | metabolic stability | recombinant enzyme | 1 µM | – | intrinsic clearance | < 0.0559 µL/min/pmol |
| CN1CC[C@@H](c2c(O)cc(O)c3c(=O)cc(-c4ccc(C(F)(F)F)cc4Cl)oc23)[C@@H]1CO | – | item: Epistaxis | B-cell malignancies | oral, 150 mg, intermittent dosing | – | patients with adverse event | 0% |
| CO[C@H]1C[C@@H]2CC[C@@H](C)[C@@](O)(O2)C(=O)C(=O)N2CCCC[C@H]2C(=O)O[C@H]([C@H](C)C[C@@H]2CC[C@@H](OC(=O)NCCOCCOCCOCCOCCOCCOCCOCCOCCC(=O)N3CCc4cc(Cn5nc(-c6ccc7oc(N)nc7c6)c6c(N)ncnc65)ccc4C3)[C@H](OC)C2)C[C@@H](O)[C@H](C)/C=C(\C)[C@@H](O)[C@@H](OC)C(=O)[C@H](C)C[C@H](C)/C=C/C=C/C=C/1C | – | phase 1 dose escalation, item: decreased appetite | advanced solid tumour patients | intravenous, 10 mg weekly, any grade | – | TRAE incidence | 12.5% |
| CC[C@H](C)[C@H](NC(=O)[C@H](C)N)C(=O)N[C@@H](CO)C(=O)NCC(=O)N[C@@H](CO)C(=O)N[C@@H](CC(C)C)C(=O)N[C@H](C(=O)N[C@H](C(=O)N[C@@H](CC(C)C)C(=O)N[C@@H](Cc1ccccc1)C(=O)NCC(=O)N[C@@H](Cc1ccc(O)cc1)C(=O)N[C@@H](CCCNC(=N)N)C(=O)N[C@@H](CCCNC(=N)N)C(=O)N[C@@H](CCCNC(=N)N)C(=O)N[C@@H](CCCNC(=N)N)C(=O)N[C@@H](CCCNC(=N)N)C(=O)N[C@@H](CCCNC(=N)N)C(N)=O)[C@@H](C)O)C(C)C | human erythrocytes | – | – | 400 µM, 1 h | reference: Triton X-100 | hemolysis | 28% |
| CCCCCCCCCCC(=O)O[C@H]1CC[C@H]2[C@@H]3CCC4=CC(=O)CC[C@]4(C)[C@H]3CC[C@]12C | – | – | human male serum | 500 ng/mL, NaF 50.0 mg/mL, baseline testosterone 441 ng/dL | – | testosterone level | 445 ng/dL |
| Cc1ncc2n1-c1ccc(Cl)cc1C(c1ccccc1F)=NC2 | – | – | wild-type mouse, plasma | intravenous, 0.3 mg/kg, 14-day CMC pretreatment | – | AUC(0-90 min) | 148 ± 39.2 nM·h |
| COc1cccc(-c2n[nH]c(SCc3ccccn3)n2)c1OC | Escherichia coli | Ames test, preincubation | WP2 uvrA | 5.0 mg/plate, without S9 | – | revertant colonies per plate | 12 |
